Results from different studies.
Compare with care: the assays were run in different laboratories. ± gives the spread as reported.

COc1cc(CNC(=O)C[C@H](C)CCC=C(C)C)ccc1OCc1cn(-c2ccc(Cl)cc2Cl)nn1  growth percent (BT-549 breast cancer cells; SRB; 10 µM, 48 h): 83.7%
O=C(N=P12CN3CN(CN(C3)C1)C2)c1cccc[c]1[Pd].O=C(N=P12CN3CN(CN(C3)C1)C2)c1cccc[c]1[Pd]([Br])[Br]  selectivity ratio (human PBMC and Jurkat; cytotoxicity, MTT; baseline: PBMC over Jurkat): 26
CC/C=C\C/C=C\C/C=C\C/C=C\C/C=C\C/C=C\CCC(=O)Nc1ccn(C2OC(CO)C(O)C2(F)F)c(=O)n1 (stereo not drawn)  TGI (SNB-19; NCI60 screen): 12.4 µM
C=CC1CN(C(=O)NCC=CCSSSCC=CCNC(=O)N2CC(C=C)OC2=S)C(=S)O1 (stereo not drawn)  inhibition (WB-F344 rat liver; hepatocyte damage; 10 µM, together with: D-galactosamine): 73%
Cc1ccc(C(C)C)cc1.O=C(N=P(c1ccccc1)(c1ccccc1)c1ccccc1)c1ccccn1.[Cl-].[Cl][Ru+]  apoptotic cells (HCC1806; Annexin V/PI flow cytometry; IC50, 24 h): 44%
CCN(CC)CCCNC(=O)CSc1c2c(nc3cc(Cl)ccc13)CCCC2  Emax (LDR; silenced GFP reporter derepression, microscopy; overnight; baseline: sodium butyrate): 63%
Oc1ccccc1-c1nn(-c2ccccn2)[n+](-c2ccccc2)n1.[Br-]  dead cells (A2780; LIVE/DEAD flow cytometry; 40 µM, 48 h, together with: holo-transferrin 50 µM): 6.2%
CCCC(=O)N1CCN(c2ccc(NC(=O)c3ccc([N+](=O)[O-])o3)cc2Cl)CC1  EC50 (LDR; silenced GFP reporter derepression, microscopy; overnight): 1 µM
CC(C)c1cccc(C(C)C)c1-n1ccn(-c2c(C(C)C)cccc2C(C)C)c1=[Se].[Cl][Au]  resistance factor (LoVo-OXP colon cancer cells; MTT; baseline: LoVo-OXP over LoVo IC50): 1.1
COc1cc(CNC(=O)C[C@H](C)CCC=C(C)C)ccc1OCc1cn(-c2ccccc2F)nn1  growth percent (SNB-19 CNS cancer cells; SRB; 10 µM, 48 h): 55.7%
CCC(=O)N1CCN(c2ccc(NC(=O)c3ccc([N+](=O)[O-])o3)cc2Cl)CC1  Emax (LDR; silenced GFP reporter derepression, microscopy; overnight; baseline: sodium butyrate): 38%
Cc1ccc(C(C)C)cc1.O=C(N=P(c1ccccc1)(c1ccccc1)c1ccccc1)c1ccccn1.[Cl-].[Cl-].[Ru+2]  cells with ΔΨm loss (Jurkat; flow cytometry; concentration not given, together with: z-VAD-fmk 50 µM): 30%
CC(=O)Oc1ccccc1C(=O)[O][Pt]([NH2])([NH2])([Cl])([Cl])[O]C(=O)C(Cl)Cl  selectivity index (HEK293 and PSN1; cytotoxicity, MTT; baseline: IC50 HEK293 over IC50 PSN1): 1.5
Cc1ccc(C(C)C)c(OCc2ccc(C(=O)N/N=C/c3cccc(O)c3O)cc2)c1  mRNA level (HCC4017; qRT-PCR, refers to: ANGPTL4; concentration not given, 24 h): increased
Clc1cccc(Nc2nc(NCc3ccccc3)c3ccccc3n2)c1  GI50 (SW-403; cell growth or viability; 72 h): 4.1 µM
CCCCN1C(=O)c2cccc3c(NCCCCCCCCCCN4CCOCC4)ccc(c23)C1=O  Pearson correlation coefficient (BHK-21; lysosome colocalization, confocal microscopy; 0.2 µM, together with: LysoTracker Deep Red 0.3 µM): 0.87 ± 0.04
CC(C)=CCC1=C([O-])C(=O)c2ccccc2C1=O.CC(C)=CCC1=C([O-])C(=O)c2ccccc2C1=O.O.[Cu+2].c1ccc(-c2ccccn2)nc1  selectivity index (MRC5 and A2780; MTT; 24 h; baseline: IC50 MRC5 over IC50 A2780): 3.8
Cc1ccc(C(C)C)cc1.[Cl-].[Cl][Ru+].[Ru+].c1ccc(-c2cn(CCCCOc3ccccc3-c3nc4ccccc4s3)nn2)nc1  cells in phase (MCF7; PI flow cytometry, refers to: G2/M phase; 4 µM, 24 h): 18.5%
COc1cc(C2c3cc4c(cc3C=C(C=O)C2C(=O)OCC=Cc2ccccc2)OCO4)cc(OC)c1OC (stereo not drawn)  selectivity index (uninfected mouse splenocytes; baseline: splenocyte CC50 over amastigote EC50): > 10
CCC12CCc3c(c4ccccc4n3C)CCN(CC3OC31)C2 (stereo not drawn)  PGE2 level (BV-2; ELISA; 25 µM, 1 h pretreatment, together with: LPS; baseline: LPS alone): 15.3%
COc1cc(/C=C/C(=O)NCCCCCCNC2=C3C[C@@H](C)C[C@H](OC)[C@H](O)[C@@H](C)/C=C(\C)[C@H](OC(N)=O)[C@@H](OC)/C=C\C=C(/C)C(=O)NC(=CC2=O)C3=O)ccc1O  Hsp70 protein level (MDA-MB-231 cells; Hsp90 inhibitor, Western blot; 0.5 µM): increased
N[C@@H](CCC(=O)N[C@@H](CS[Se]Cc1ccc(-c2cc(C(F)(F)F)nn2-c2ccc(S(N)(=O)=O)cc2)cc1)C(=O)NCC(=O)O)C(=O)O  decrease in viability (melanoma cells; MTS; 12.5 µM; baseline: DMSO vehicle): 40 to 60%
C#CCN(CC(=O)O[C@H]1[C@H](C)O[C@@H](O[C@H]2[C@H](N(C)C)[C@@H](O)[C@H](O[C@H]3[C@@H](CC=O)C[C@@H](C)[C@@H](O[C@H]4CC[C@H](N(C)C)[C@@H](C)O4)/C=C/C=C/C[C@@H](C)OC(=O)C[C@@H](O)[C@@H]3OC)O[C@@H]2C)C[C@@]1(C)O)C(=O)c1ccc(C(F)(F)F)cc1  cleaved PARP level (HGC-27; Western blot; 0.10, 0.45, 0.90 µM, 24 h): increased
COc1cc(CNC(=O)C[C@H](C)CCC=C(C)C)ccc1OCc1cn(-c2ccccc2)nn1  growth percent (SNB-19 CNS cancer cells; SRB; 10 µM, 48 h): 74.4%
Cc1c(Cc2cc(F)cc(OC(C)(C)C(=O)O)c2)c2ccc(C(=O)N[C@@H](C)c3cc(F)cc(C(C)(C)C)c3)cc2n1CC1CCC1  adiponectin secretion increase (human adipocytes, type 2 diabetic donor; concentration not given, 24 h; baseline: DMSO): 30%
Cc1noc(NS(=O)(=O)c2ccc(NC(=O)c3cc(-c4cccc(Cl)c4)nc4ccccc34)cc2)c1C  inhibition (mouse spleen cells; cell proliferation, MTT; 100 µM, 72 h, together with: concanavalin A 5 µg/mL): 47.4 ± 4.98%
CO[C@@H]1[C@H](O)[C@@H](COP(=O)(O)OP(=O)([S-])OP(=O)(S)OC[C@H]2O[C@@H](n3cnc4c(=O)[nH]c(N)nc43)[C@H](O)[C@@H]2O)O[C@H]1n1c[n+](C)c2c(O)nc(N)nc21 (mixture of isomers)  relative translation efficiency (human immature dendritic cells; reporter gene; cap on electroporated luciferase mRNA; baseline: beta-S-ARCA D1 capped mRNA): 1.21 ± 0.15
CCCCCCCCCCCCCC(=O)N1CCC[C@H]1C(=O)N[C@@H](CO)C(=O)N[C@@H](CCC(N)=O)C(=O)N[C@@H](CO)C(=O)N[C@@H](CCCCNC(=O)c1ccc(Br)cc1)C(=O)N[C@@H](CO)C(=O)N[C@@H](CCCCNC(=O)c1ccc(Br)cc1)C(=O)N[C@@H](C)C(=O)O  reduction in live cells (AsPC-1; annexin V/PI staining; 50 µM, 48 h): 53%
CC(=O)OC[C@H]1O[C@@H](Sc2sc(C(=O)c3ccc(C)cc3)c(N)c2-c2nc3ccccc3s2)[C@H](OC(C)=O)[C@@H](OC(C)=O)[C@@H]1OC(C)=O  growth (SF-268; SRB; 10 µM, 48 h; baseline: untreated): 71%
O=Cc1c(O)ccc2ccccc12  log2 fold change (HUVEC; RNA sequencing, refers to: RASGRF2; 75 µM, 24 h; baseline: DMSO): 2.52
CCOC(=O)C1NC(c2ccc[n+](C)c2)C23c4c5c6c7c8c9c(c%10c%11c2c2c4c4c%12c5c5c6c6c8c8c%13c9c9c%10c%10c%11c%11c2c2c4c4c%12c%12c5c5c6c8c6c8c%13c9c9c%10c%10c%11c2c2c4c4c%12c5c6c5c8c9c%10c2c45)C713 (stereo not drawn)  increase in dead cells (BCBL1 and BC-3; LDH release; 50 µM, 24 h): 7 to 15%
COc1cc(CNC(=O)C[C@H](C)CCC=C(C)C)ccc1OCc1cn(-c2ccccc2[N+](=O)[O-])nn1  growth percent (BT-549 breast cancer cells; SRB; 10 µM, 48 h): 24.1%
Cc1noc(NS(=O)(=O)c2ccc(NC(=O)c3ccnc(-c4cccc(Br)c4)c3)cc2)c1C  inhibition (mouse spleen cells; cell proliferation, MTT; 10 µM, 72 h, together with: concanavalin A 5 µg/mL): 22.7 ± 7.06%
C=CC(=O)Oc1ccc(Cl)cc1C(=O)Nc1ccc([N+](=O)[O-])cc1Cl  AR-V7 and STUB1 co-localization (293 cells expressing AR-V7, HSP70 and Flag-STUB1; dual immunofluorescence; 1 µM): increased
CCCCN1C(=O)c2cccc3c(NCCCCCCCCN4CCOCC4)ccc(c23)C1=O  Pearson's correlation coefficient (BHK-21; confocal microscopy, refers to: endoplasmic reticulum colocalisation; 0.2 µM, together with: 0.3 µM ER-Tracker Red): 0.78 ± 0.03
COc1cc(CNC(=O)C[C@H](C)CCC=C(C)C)ccc1OCc1cn(-c2ccccc2Cl)nn1  growth percent (SNB-19 CNS cancer cells; SRB; 10 µM, 48 h): 61.3%
CCN(CC)CC(=O)Nc1cccc(-n2cc(-c3ccc4ccc(-c5cn(-c6cccc(NC(=O)CN(CC)CC)c6)nn5)cc4c3)nn2)c1  HRE reporter activity decrease (RCC4; luciferase reporter; 10 x IC50, normoxia): 25%
Cc1nn(-c2ccc(S(=O)(=O)N[C@H](CO)CC(C)C)cc2)c2nn3nnnc3nc12  apoptotic cells (HT-29; AO/EB staining; 1 µM, 24 h): 23 ± 2.82%
C=Cc1cc2c(cc1OC)C1(C)Cc3cnc(C)nc3C(C)(C)C1CC2 (stereo not drawn)  testosterone level (TM3; ELISA; culture medium; 20 µM, 24 h): 227 ± 3 µmol/L
COc1ccc(CC2COC(=O)C2Cc2ccc3c(c2)OCO3)cc1OC (mixture of isomers)  caspase-positive cells (A2780; refers to: multi-caspase; 8.75 µM, 72 h; baseline: untreated): increased
COc1ccc([C@@H]2CC(=O)c3c(O)cc(O[C@@H]4O[C@H](CO[C@@H]5O[C@@H](C)[C@H](O)[C@@H](O)[C@H]5O)[C@@H](O[C@H]5O[C@H](CO)[C@@H](O)[C@H](O)[C@H]5O)[C@H](O)[C@H]4O)cc3O2)cc1O  viability (A549; cell growth or viability, MTS; 100 µg/mL, 72 h): 44.1%
COc1ccc2c(c1)/C(=N\Nc1nnc3n1N=C(c1ccccc1)CS3)C(=O)N2  inhibition (SF-268; cell growth or viability, SRB; 10 µM): 12%

For quick reference, copied from above:
COc1cc(CNC(=O)C[C@H](C)CCC=C(C)C)ccc1OCc1cn(-c2ccccc2Cl)nn1  growth percent (SNB-19 CNS cancer cells; SRB; 10 µM, 48 h): 61.3%
COc1cc(CNC(=O)C[C@H](C)CCC=C(C)C)ccc1OCc1cn(-c2ccc(Cl)cc2Cl)nn1  growth percent (BT-549 breast cancer cells; SRB; 10 µM, 48 h): 83.7%
Cc1ccc(C(C)C)c(OCc2ccc(C(=O)N/N=C/c3cccc(O)c3O)cc2)c1  mRNA level (HCC4017; qRT-PCR, refers to: ANGPTL4; concentration not given, 24 h): increased
CCC(=O)N1CCN(c2ccc(NC(=O)c3ccc([N+](=O)[O-])o3)cc2Cl)CC1  Emax (LDR; silenced GFP reporter derepression, microscopy; overnight; baseline: sodium butyrate): 38%
CC(C)=CCC1=C([O-])C(=O)c2ccccc2C1=O.CC(C)=CCC1=C([O-])C(=O)c2ccccc2C1=O.O.[Cu+2].c1ccc(-c2ccccn2)nc1  selectivity index (MRC5 and A2780; MTT; 24 h; baseline: IC50 MRC5 over IC50 A2780): 3.8
